Experimental data gathered from unrelated publications.
Method: shake flask

Compound | sample | pH | logD
O=C1c2ccc3c4ccc5c6c(ccc(c7ccc(c2c37)C(=O)N1CCN1CCCCC1)c64)C(=O)N(CCN1CCCCC1)C5=O | aqueous buffer | pH 8 | 2.03
CCOC(=O)C12CC(N)(C1)C2 | PBS | pH 7.4 | 0.1
CC1=C(CCO)C2=[N+]3C1=Cc1c(CCO)c(C)c4[n]1[Fe-2]31[n]3c(c(C)c(CCC(=O)O)c3=CC3=[N+]1C(=C4)C(C)=C3CCC(=O)O)=C2 (stereo not shown) | aqueous buffer | pH 9 | 0.12
O=C(O)C(Cc1c[nH]cn1)N1C(=O)c2ccc3c4ccc5c6c(ccc(c7ccc(c2c37)C1=O)c64)C(=O)N(CCN1CCCCC1)C5=O (stereo not shown) | aqueous buffer | pH 6 | 2.42
NC(=O)CN(Cc1ccccc1)C(=O)CN(CCOc1cc(-c2ccccn2)nc(-c2ccccn2)c1)C(=O)CNCc1ccccn1 | PBS | pH 7.4 | 0.519
CC(C)C[C@@H]1NC(=O)[C@H](C(C)C)NC(=O)[C@H](Cc2c[nH]c3ccccc23)NC(=O)[C@@H]2CSSC[C@H](NC(=O)[C@H](Cc3ccc(O)cc3)NC(=O)[C@H](C(C)C)NC(=O)[C@H](CCCNC(=N)N)NC(=O)CNC(=O)[C@H]3CCCN3C1=O)C(=O)N[C@@H](CCC(N)=O)C(=O)N1CCC[C@H]1C(=O)NCC(=O)N[C@@H](Cc1c[nH]c3ccccc13)C(=O)N2 | aqueous buffer | pH 7.4 | 4.18
O=c1c2sccc2n(CC2COc3ccccc3O2)c(=O)n1O (stereo not shown) | aqueous buffer | pH 7.4 | 1.4
CC(C)(C)C12CC(CN3CCN(C(c4ccccc4)c4ccc(Cl)cc4)CC3)(C1)C2 (stereo not shown) | PBS | pH 7.4 | 3.3
[11CH3]N(Cc1ccc(/C=C/C(=O)NO)cc1)CC12CC3CC(CC(C3)C1)C2 | aqueous buffer | pH 7.4 | 2.03
O=c1c2ccccc2n(CC2CC2)c(=O)n1O | aqueous buffer | pH 7.4 | 0.8
